Experimental data of several laboratories.
Compare with care: the assays were run in different laboratories. Numbers after ± are the reported error.
B1: POF1B (human); sequence looked up; chain MSSSYWSETSSSSCGTQQLPEVLQCQPQHYHCYHQSSQAQQPPEKNVVYERVRTYSGPMNKVVQALDPFNSREVLSPLKTTSSYQNLVWSDHSQELHSPTLKISTCAPSTLHITQNTEQELHSPTVKLTTYPQTTIRKYVVQNPEQEPLSQFLRGSHFFPGNNVIYEKTIRKVEKLNTDQGCHPQAQCHHHIIQQPQVIHSAHWQQPDSSQQIQAITGNNPISTHIGNELCHSGSSQICEQVIIQDDGPEKLDPRYFGELLADLSRKNTDLYHCLLEHLQRIGGSKQDFESTDESEDIESLIPKGLSEFTKQQIRYILQMRGMSDKSLRLVLSTFSNIREELGHLQNDMTSLENDKMRLEKDLSFKDTQLKEYEELLASVRANNHQQQQGLQDSSSKCQALEENNLSLRHTLSDMEYRLKELEYCKRNLEQENQNLRMQVSETCTGPMLQAKMDEIGNHYTEMVKNLRMEKDREICRLRSQLNQYHKDVSKREGSCSDFQFKLHELTSLLEEKDSLIKRQSEELSKLRQEIYSSHNQPSTGGRTTITTKKYRTQYPILGLLYDDYEYIPPGSETQTIVIEKTEDKYTCP
B2: plakophilin-1 (human); sequence looked up; chain MNHSPLKTALAYECFQDQDNSTLALPSDQKMKTGTSGRQRVQEQVMMTVKRQKSKSSQSSTLSHSNRGSMYDGLADNYNYGTTSRSSYYSKFQAGNGSWGYPIYNGTLKREPDNRRFSSYSQMENWSRHYPRGSCNTTGAGSDICFMQKIKASRSEPDLYCDPRGTLRKGTLGSKGQKTTQNRYSFYSTCSGQKAIKKCPVRPPSCASKQDPVYIPPISCNKDLSFGHSRASSKICSEDIECSGLTIPKAVQYLSSQDEKYQAIGAYYIQHTCFQDESAKQQVYQLGGICKLVDLLRSPNQNVQQAAAGALRNLVFRSTTNKLETRRQNGIREAVSLLRRTGNAEIQKQLTGLLWNLSSTDELKEELIADALPVLADRVIIPFSGWCDGNSNMSREVVDPEVFFNATGCLRKRLGMRELLALVPQRATSSRVNLSSADAGRQTMRNYSGLIDSLMAYVQNCVAASRCDDKSVENCMCVLHNLSYRLDAEVPTRYRQLEYNARNAYTEKSSTGCFSNKSDKMMNNNYDCPLPEEETNPKGSGWLYHSDAIRTYLNLMGKSKKDATLEACAGALQNLTASKGLMSSGMSQLIGLKEKGLPQIARLLQSGNSDVVRSGASLLSNMSRHPLLHRVMGNQVFPEVTRLLTSHTGNTSNSEDILSSACYTVRNLMASQPQLAKQYFSSSMLNNIINLCRSSASPKAAEAARLLLSDMWSSKELQGVLRQQGFDRNMLGTLAGANSLRNFTSRF
B3: human radixin; sequence looked up; chain MPKPINVRVTTMDAELEFAIQPNTTGKQLFDQVVKTVGLREVWFFGLQYVDSKGYSTWLKLNKKVTQQDVKKENPLQFKFRAKFFPEDVSEELIQEITQRLFFLQVKEAILNDEIYCPPETAVLLASYAVQAKYGDYNKEIHKPGYLANDRLLPQRVLEQHKLTKEQWEERIQNWHEEHRGMLREDSMMEYLKIAQDLEMYGVNYFEIKNKKGTELWLGVDALGLNIYEHDDKLTPKIGFPWSEIRNISFNDKKFVIKPIDKKAPDFVFYAPRLRINKRILALCMGNHELYMRRRKPDTIEVQQMKAQAREEKHQKQLERAQLENEKKKREIAEKEKERIEREKEELMERLKQIEEQTIKAQKELEEQTRKALELDQERKRAKEEAERLEKERRAAEEAKSAIAKQAADQMKNQEQLAAELAEFTAKIALLEEAKKKKEEEATEWQHKAFAAQEDLEKTKEELKTVMSAPPPPPPPPVIPPTENEHDEHDENNAEASAELSNEGVMNHRSEEERVTETQKNERVKKQLQALSSELAQARDETKKTQNDVLHAENVKAGRDKYKTLRQIRQGNTKQRIDEFEAM
B4: human exportin-2; sequence looked up; chain MELSDANLQTLTEYLKKTLDPDPAIRRPAEKFLESVEGNQNYPLLLLTLLEKSQDNVIKVCASVTFKNYIKRNWRIVEDEPNKICEADRVAIKANIVHLMLSSPEQIQKQLSDAISIIGREDFPQKWPDLLTEMVNRFQSGDFHVINGVLRTAHSLFKRYRHEFKSNELWTEIKLVLDAFALPLTNLFKATIELCSTHANDASALRILFSSLILISKLFYSLNFQDLPEFFEDNMETWMNNFHTLLTLDNKLLQTDDEEEAGLLELLKSQICDNAALYAQKYDEEFQRYLPRFVTAIWNLLVTTGQEVKYDLLVSNAIQFLASVCERPHYKNLFEDQNTLTSICEKVIVPNMEFRAADEEAFEDNSEEYIRRDLEGSDIDTRRRAACDLVRGLCKFFEGPVTGIFSGYVNSMLQEYAKNPSVNWKHKDAAIYLVTSLASKAQTQKHGITQANELVNLTEFFVNHILPDLKSANVNEFPVLKADGIKYIMIFRNQVPKEHLLVSIPLLINHLQAESIVVHTYAAHALERLFTMRGPNNATLFTAAEIAPFVEILLTNLFKALTLPGSSENEYIMKAIMRSFSLLQEAIIPYIPTLITQLTQKLLAVSKNPSKPHFNHYMFEAICLSIRITCKANPAAVVNFEEALFLVFTEILQNDVQEFIPYVFQVMSLLLETHKNDIPSSYMALFPHLLQPVLWERTGNIPALVRLLQAFLERGSNTIASAAADKIPGLLGVFQKLIASKANDHQGFYLLNSIIEHMPPESVDQYRKQIFILLFQRLQNSKTTKFIKSFLVFINLYCIKYGALALQEIFDGIQPKMFGMVLEKIIIPEIQKVSGNVEKKICAVGITKLLTECPPMMDTEYTKLWTPLLQSLIGLFELPEDDTIPDEEHFIDIEDTPGYQTAFSQLAFAGKKEHDPVGQMVNNPKIHLAQSLHKLSTACPGRVPSMVSTSLNAEALQYLQGYLQAASVTLL

Molecule	cell line	assay	system	setting	how to read	quantity	result
B1 (POF1B)	CYB5R4 knockout human cells	PP4 interaction, 3xFLAG-PP4C IP-MS	–	concentration not given	relative to: CYB5R4 KO over parental	log2 fold change	1.5
Pam2CSK4	BV-2	Western blot, refers to: NLRP3	–	concentration not given	relative to: control	relative protein level	2.16
EVDPIGFDF	Jurkat expressing engineered TCR	NFAT-eGFP reporter, fluorescence microscopy	peptide	concentration not given, HLA-A*01:01 on EL4 cells	–	GFP-positive cells	0.421%
B2 (plakophilin-1)	CYB5R4 knockout human cells	PP6 interaction, 3xFLAG-PP6C IP-MS	–	concentration not given	relative to: CYB5R4 KO over parental	log2 fold change	1.59
pregnenolone sulfate	MIN6 and INS1 cells	agonist, calcium microfluorimetry	–	concentration not given, not DTT-treated	–	responding cells	90%
GTDHIPYAY	Jurkat expressing engineered TCR	NFAT-eGFP reporter, fluorescence microscopy	peptide	concentration not given, HLA-A*01:01 on EL4 cells	–	GFP-positive cells	0.471%
Peginesatide	UT7/EPO	microarray, refers to: CISH mRNA (probe set 223961_s_at)	–	20 nM, 90 min	relative to: vehicle	mRNA level	10.9 fold
human epiplakin	CYB5R4 knockout human cells	PP4 interaction, 3xFLAG-PP4C IP-MS	–	concentration not given	relative to: CYB5R4 KO over parental	log2 fold change	0.71
epoetin alfa	UT7/EPO	microarray, refers to: PLSCR1 mRNA (probe set 241916_at)	–	5 U/mL, 90 min	relative to: vehicle	mRNA level	3.4 fold
QSDPIGHEY	Jurkat expressing engineered TCR	NFAT-eGFP reporter, fluorescence microscopy	peptide	concentration not given, HLA-A*01:01 on EL4 cells	–	GFP-positive cells	0.904%
B3 (human radixin)	CYB5R4 knockout human cells	PP6 interaction, 3xFLAG-PP6C IP-MS	–	concentration not given	relative to: CYB5R4 KO over parental	log2 fold change	0.71
monocyte chemoattractant protein-1	HUVEC	scratch wound	–	50 ng/mL, 24 h	relative to: control	endothelial cell migration	increased
RSDPIPLGM	Jurkat expressing engineered TCR	NFAT-eGFP reporter, fluorescence microscopy	peptide	concentration not given, HLA-A*01:01 on EL4 cells	–	GFP-positive cells	0.473%
MTVCNASQRQAHAQATAVSL	HCC515	phage binding	peptide	–	relative to: targeting over control phage	selectivity ratio	0.43 ± 0.1
EIEPIGFEY	Jurkat expressing engineered TCR	NFAT-eGFP reporter, fluorescence microscopy	peptide	concentration not given, HLA-A*01:01 on EL4 cells	–	GFP-positive cells	0.342%
human SETD2	CYB5R4 knockout human cells	PP4 interaction, 3xFLAG-PP4C IP-MS	–	concentration not given	relative to: CYB5R4 KO over parental	log2 fold change	0.51
QSDPIQSSY	Jurkat expressing engineered TCR	NFAT-eGFP reporter, fluorescence microscopy	peptide	concentration not given, HLA-A*01:01 on EL4 cells	–	GFP-positive cells	0.604%
B4 (human exportin-2)	CYB5R4 knockout human cells	PP4 interaction, 3xFLAG-PP4C IP-MS	–	concentration not given	relative to: CYB5R4 KO over parental	log2 fold change	-0.38

Some of these lines once more:
Molecule	cell line	assay	system	setting	how to read	quantity	result
human epiplakin	CYB5R4 knockout human cells	PP4 interaction, 3xFLAG-PP4C IP-MS	–	concentration not given	relative to: CYB5R4 KO over parental	log2 fold change	0.71
